Literature values as cited in several papers.
Lines come from different studies, so protocols differ. ± gives the spread as reported.
CYP3A4: Cytochrome P450 3A4 (CYP3A4, Homo sapiens, UniProt P08684)
Chain of UniProt P08684 (whole entry, looked up): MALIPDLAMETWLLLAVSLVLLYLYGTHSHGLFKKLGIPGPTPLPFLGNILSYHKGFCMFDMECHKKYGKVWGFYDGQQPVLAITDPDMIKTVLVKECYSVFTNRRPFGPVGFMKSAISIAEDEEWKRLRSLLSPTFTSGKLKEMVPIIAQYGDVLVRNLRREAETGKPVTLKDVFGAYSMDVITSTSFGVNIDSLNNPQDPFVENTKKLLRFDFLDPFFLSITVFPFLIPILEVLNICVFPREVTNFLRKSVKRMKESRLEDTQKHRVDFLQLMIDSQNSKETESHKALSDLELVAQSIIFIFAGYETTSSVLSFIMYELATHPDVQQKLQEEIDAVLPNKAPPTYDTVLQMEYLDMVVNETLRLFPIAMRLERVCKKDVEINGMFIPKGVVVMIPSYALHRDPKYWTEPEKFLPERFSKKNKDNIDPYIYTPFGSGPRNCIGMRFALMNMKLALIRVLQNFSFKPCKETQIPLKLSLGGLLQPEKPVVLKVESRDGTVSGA
Chain of UniProt Q9UK32 (whole entry, looked up): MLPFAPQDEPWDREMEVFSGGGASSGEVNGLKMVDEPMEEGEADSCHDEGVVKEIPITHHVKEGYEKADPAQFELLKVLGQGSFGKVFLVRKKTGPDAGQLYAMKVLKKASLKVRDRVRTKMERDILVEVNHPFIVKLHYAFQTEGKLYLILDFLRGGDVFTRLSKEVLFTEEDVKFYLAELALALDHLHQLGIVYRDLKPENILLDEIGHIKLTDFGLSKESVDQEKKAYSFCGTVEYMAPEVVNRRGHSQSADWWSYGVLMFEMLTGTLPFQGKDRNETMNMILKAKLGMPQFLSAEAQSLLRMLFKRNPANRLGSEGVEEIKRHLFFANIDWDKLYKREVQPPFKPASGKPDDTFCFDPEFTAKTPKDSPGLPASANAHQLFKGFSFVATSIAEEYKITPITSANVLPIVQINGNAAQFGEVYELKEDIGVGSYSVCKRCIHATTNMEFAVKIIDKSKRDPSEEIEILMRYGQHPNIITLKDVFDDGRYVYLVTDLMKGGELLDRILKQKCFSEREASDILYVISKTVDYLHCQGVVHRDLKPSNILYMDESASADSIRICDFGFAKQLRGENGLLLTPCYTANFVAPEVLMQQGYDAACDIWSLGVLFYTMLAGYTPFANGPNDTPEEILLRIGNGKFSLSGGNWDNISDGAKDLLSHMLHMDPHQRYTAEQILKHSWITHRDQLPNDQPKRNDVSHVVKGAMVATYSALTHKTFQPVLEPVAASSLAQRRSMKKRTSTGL
Chain of UniProt P10632 (whole entry, looked up): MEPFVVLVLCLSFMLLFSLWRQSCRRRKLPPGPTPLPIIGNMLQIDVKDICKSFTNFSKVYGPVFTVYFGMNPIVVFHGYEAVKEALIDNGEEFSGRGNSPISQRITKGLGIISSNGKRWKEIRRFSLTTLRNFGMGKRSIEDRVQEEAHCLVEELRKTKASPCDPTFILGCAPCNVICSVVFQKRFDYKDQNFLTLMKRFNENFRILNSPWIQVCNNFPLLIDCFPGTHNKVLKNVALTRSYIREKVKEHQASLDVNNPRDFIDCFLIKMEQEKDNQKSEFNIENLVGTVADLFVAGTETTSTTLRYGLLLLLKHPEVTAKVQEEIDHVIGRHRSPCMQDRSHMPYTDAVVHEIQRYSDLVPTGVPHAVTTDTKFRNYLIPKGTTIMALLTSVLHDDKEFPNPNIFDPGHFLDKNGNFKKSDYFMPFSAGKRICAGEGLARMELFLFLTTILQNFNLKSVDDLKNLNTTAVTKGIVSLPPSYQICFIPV
Chain of UniProt P08183 (whole entry, looked up): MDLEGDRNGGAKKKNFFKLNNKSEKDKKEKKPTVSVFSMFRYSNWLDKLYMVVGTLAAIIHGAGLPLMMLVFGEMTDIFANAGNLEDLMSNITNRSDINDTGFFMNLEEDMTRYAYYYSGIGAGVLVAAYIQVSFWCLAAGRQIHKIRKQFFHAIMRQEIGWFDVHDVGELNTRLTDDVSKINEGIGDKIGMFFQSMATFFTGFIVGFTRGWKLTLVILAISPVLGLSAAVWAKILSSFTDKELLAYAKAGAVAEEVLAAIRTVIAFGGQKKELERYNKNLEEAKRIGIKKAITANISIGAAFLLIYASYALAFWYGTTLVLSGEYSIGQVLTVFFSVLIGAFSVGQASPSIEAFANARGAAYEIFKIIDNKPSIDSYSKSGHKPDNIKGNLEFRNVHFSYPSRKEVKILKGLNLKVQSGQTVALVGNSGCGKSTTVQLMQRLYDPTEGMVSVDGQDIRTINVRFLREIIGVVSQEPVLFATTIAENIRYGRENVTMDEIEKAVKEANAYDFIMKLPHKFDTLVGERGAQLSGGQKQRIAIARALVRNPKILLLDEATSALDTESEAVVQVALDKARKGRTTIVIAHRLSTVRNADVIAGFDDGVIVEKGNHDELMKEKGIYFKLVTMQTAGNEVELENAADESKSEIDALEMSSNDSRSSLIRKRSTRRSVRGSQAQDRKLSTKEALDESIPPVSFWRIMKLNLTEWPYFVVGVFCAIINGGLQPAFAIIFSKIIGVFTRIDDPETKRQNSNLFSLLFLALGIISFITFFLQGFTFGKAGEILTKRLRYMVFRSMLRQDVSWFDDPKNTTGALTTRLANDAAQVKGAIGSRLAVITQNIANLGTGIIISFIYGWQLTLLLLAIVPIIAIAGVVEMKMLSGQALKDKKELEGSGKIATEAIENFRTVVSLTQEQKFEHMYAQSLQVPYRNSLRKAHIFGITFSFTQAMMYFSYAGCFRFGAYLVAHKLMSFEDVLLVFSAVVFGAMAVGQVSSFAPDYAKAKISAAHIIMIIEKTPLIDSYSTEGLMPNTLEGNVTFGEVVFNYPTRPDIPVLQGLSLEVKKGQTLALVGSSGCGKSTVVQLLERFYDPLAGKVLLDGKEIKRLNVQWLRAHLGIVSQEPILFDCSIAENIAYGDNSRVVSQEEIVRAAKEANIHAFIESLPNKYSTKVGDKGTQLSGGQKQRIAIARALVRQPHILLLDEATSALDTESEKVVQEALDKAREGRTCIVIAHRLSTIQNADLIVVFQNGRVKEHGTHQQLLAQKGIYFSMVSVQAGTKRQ
Chain of UniProt Q9UNQ0 (whole entry, looked up): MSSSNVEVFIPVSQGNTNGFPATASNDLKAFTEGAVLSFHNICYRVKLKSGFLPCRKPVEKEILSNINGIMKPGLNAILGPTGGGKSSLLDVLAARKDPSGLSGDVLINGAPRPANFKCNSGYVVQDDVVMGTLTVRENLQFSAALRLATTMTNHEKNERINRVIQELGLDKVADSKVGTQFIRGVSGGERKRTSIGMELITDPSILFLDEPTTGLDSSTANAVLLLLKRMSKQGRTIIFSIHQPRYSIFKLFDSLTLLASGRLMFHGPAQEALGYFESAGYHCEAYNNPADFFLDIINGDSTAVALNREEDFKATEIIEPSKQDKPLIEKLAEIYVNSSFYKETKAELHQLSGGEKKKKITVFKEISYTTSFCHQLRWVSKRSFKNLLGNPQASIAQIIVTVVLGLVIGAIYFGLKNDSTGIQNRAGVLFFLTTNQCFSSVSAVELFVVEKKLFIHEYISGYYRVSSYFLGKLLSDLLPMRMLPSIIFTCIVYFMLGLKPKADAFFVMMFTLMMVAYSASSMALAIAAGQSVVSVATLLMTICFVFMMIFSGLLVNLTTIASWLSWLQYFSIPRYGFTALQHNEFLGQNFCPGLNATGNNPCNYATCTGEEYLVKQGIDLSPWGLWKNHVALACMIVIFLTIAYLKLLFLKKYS
Chain of UniProt P11712 (whole entry, looked up): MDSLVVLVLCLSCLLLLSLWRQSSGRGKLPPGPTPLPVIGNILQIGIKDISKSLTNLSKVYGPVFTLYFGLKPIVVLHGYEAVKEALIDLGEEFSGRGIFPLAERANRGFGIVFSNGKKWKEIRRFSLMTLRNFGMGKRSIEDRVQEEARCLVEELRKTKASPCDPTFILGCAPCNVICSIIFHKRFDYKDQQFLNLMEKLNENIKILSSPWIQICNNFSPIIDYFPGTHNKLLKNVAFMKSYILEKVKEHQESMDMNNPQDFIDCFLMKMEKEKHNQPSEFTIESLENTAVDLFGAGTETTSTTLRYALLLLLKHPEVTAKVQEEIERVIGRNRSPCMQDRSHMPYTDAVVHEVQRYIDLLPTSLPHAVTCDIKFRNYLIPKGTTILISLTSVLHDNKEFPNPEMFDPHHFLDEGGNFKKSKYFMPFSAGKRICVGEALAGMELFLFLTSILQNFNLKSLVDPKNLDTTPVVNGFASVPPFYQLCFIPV

The IC50 of `COC(=O)N[C@H](C(=O)N1CCC[C@H]1c1nc(-c2ccc3c(c2)O[C@@H](c2ccccc2)n2c-3cc3cc(-c4c[nH]c([C@@H]5CCCN5C(=O)[C@@H](NC(=O)OC)C(C)C)n4)ccc32)c[nH]1)C(C)C` is reported as 0.1 µM (OATP1B3 (SLCO1B3) OATP1B1; literature geometric mean).
`Fc1c(F)c(F)c(Br)c(F)c1F` — result for activity: “inactive” (CYP2C19; concentration not given).
`CO[C@H]1/C=C/O[C@@]2(C)Oc3c(C)c(O)c4c(O)c(c(/C=N/N5CCN(C)CC5)c(O)c4c3C2=O)NC(=O)/C(C)=C\C=C\[C@H](C)[C@H](O)[C@@H](C)[C@@H](O)[C@@H](C)[C@H](OC(C)=O)[C@@H]1C` gave an EC50 of 0.3 µM (CYP2C8 human; enzyme induction, inducer, Simcyp model).
`N#Cc1ccc(C(c2ccc(C#N)cc2)n2cncn2)cc1` gave a Ki of 0.12 µM (CYP2A6 (human); inhibitor).
With `C=C[C@@H]1C[C@]1(NC(=O)[C@@H]1C[C@@H]2CN1C(=O)[C@H](C(C)(C)C)NC(=O)O[C@@H]1C[C@H]1CCCCCc1nc3ccc(OC)cc3nc1O2)C(=O)NS(=O)(=O)C1CC1` the efflux ratio was about 100 (human P-glycoprotein; LLC-PK1 cells transfected with P-glycoprotein; 1 µM; relative to: B-A over A-B Papp).
The IC50 of `Cc1ccc(C)c(OCCCC(C)(C)C(=O)O[C@@H]2O[C@H](C(=O)O)[C@@H](O)[C@H](O)[C@H]2O)c1` is reported as 24.3 µM (OATP1B1; literature maximum).
For `CN(C)C(=N)N=C(N)N`, the CLint was 300 mL/min (MATE; human liver failure patients).
`O=C1CC[C@H](N2Cc3cc(N4CCN(CC5CCN(c6ccc([C@@H]7c8ccc(O)cc8CC[C@@H]7c7ccccc7)cc6)CC5)CC4)ccc3C2=O)C(=O)N1` has a Cmax increase of 11% (Broad substrate specificity ATP-binding cassette transporter ABCG2 (ABCG2, Homo sapiens, UniProt Q9UNQ0); clinical DDI; concentration not given, with: rosuvastatin (victim)).
For `O=C(O)CN1CCNCCN(CC(=O)O)CCN(CC(=O)O)CC1`, the log KH3 was 4.43 (protonation constant; 0.15 M NaCl).
`COC(=O)N[C@@H](C)CNc1nccc(-c2cn(C(C)C)nc2-c2cc(Cl)cc(NS(C)(=O)=O)c2F)n1` — result for “steady-state exposure decrease”: about 50% (CYP3A4/5; human; dose not given, auto-induction).
With `C[C@H]1COCCN1c1nc(-c2cnc(N)cc2C(F)F)nc(N2CCOCC2)n1` the GI50 was 0.39 µM (KU812).
For `CO[C@H]1C[C@@H]2CC[C@@H](C)[C@@](O)(O2)C(=O)C(=O)N2CCCC[C@H]2C(=O)O[C@H]([C@H](C)C[C@@H]2CC[C@@H](O)[C@H](OC)C2)CC(=O)[C@H](C)/C=C(\C)[C@@H](O)[C@@H](OC)C(=O)[C@H](C)C[C@H](C)/C=C/C=C/C=C/1C`, “fraction unbound in incubation” read 0.43 (Cytochrome P450 2C8 (CYP2C8, Homo sapiens, UniProt P10632); recombinant enzyme incubation).
`N[C@@H]1c2cccnc2[C@H](OC(=O)N2CCC(n3c(=O)[nH]c4ncccc43)CC2)CC[C@H]1c1cccc(F)c1F` has an IC50 of over 40 µM (CYP1A2 (human); human liver microsomes).
The metabolism contribution of `C=CC(=O)Nc1cc(Nc2nccc(-c3cn(C)c4ccccc34)n2)c(OC)cc1N(C)CCN(C)C` is reported as 3% (CYP2E1).
For `Nc1cc(C(F)(F)F)c(-c2nc(N3CCOCC3)nc(N3CCOCC3)n2)cn1`, the remaining activity was 100% (Ribosomal protein S6 kinase alpha-6, N-terminal kinase domain (RPS6KA6, Homo sapiens, UniProt Q9UK32); enzyme activity; 10 µM; relative to: untreated).
The AC50 of `Cc1oncc1C(=O)Nc1ccc(C(F)(F)F)cc1` is reported as 14.8 µM (PXR; receptor activation, agonist, Tox21 HTS).
`O=C(O)CN(CCN(CC(=O)O)CC(=O)O)CC(=O)O` has a log KH3 of 2.73 (protonation constant; 0.15 M NaCl).
`CCC(C)n1ncn(-c2ccc(N3CCN(c4ccc(OCC5COC(Cn6cncn6)(c6ccc(Cl)cc6Cl)O5)cc4)CC3)cc2)c1=O` (centres unmarked) gave an IC50 of 4 µM (OATP1B3; literature maximum).
For `CC1(C)S[C@@H]2[C@H](NC(=O)[C@H](N)c3ccccc3)C(=O)N2[C@H]1C(=O)O`, the MIC was over 16 µg/mL (Klebsiella pneumoniae; clinical isolate RKI-No_503/15).
For `Cc1ccc(C)c(OCCCC(C)(C)C(=O)O[C@@H]2O[C@H](C(=O)O)[C@@H](O)[C@H](O)[C@H]2O)c1`, the Ki was 7.9 µM (OATP1B1 (human); transport, inhibitor; lowest published value).
`CCc1cc(/C(C)=N/OCc2ccc(C3CCCCC3)c(C(F)(F)F)c2)ccc1CN1CC(C(=O)O)C1` gave a fraction metabolized of 0.793 (Cytochrome P450 2C9 (CYP2C9, Homo sapiens, UniProt P11712); in vitro reaction phenotyping).
`O=C1Nc2ccc(Cl)cc2[C@@](C#CC2CC2)(C(F)(F)F)O1` gave a CLint of 0.47 µL/min/mg protein (CYP2A6).
The EC50 of `C=CC(=O)Nc1cc(Nc2nccc(-c3cn(C)c4ccccc34)n2)c(OCC(F)(F)F)nc1N(C)CCNC` is reported as 0.33 µM (CYP3A4; enzyme induction, inducer; in vitro).
Under “fraction of intrinsic clearance”, `COc1ccc2nc([S@+]([O-])Cc3ncc(C)c(OC)c3C)[nH]c2c1` is recorded as 2% (CYP3A; sulfone formation; in vitro).
With `COc1cc(N2CCC(N3CCN(C)CC3)CC2)ccc1Nc1ncc(Cl)c(Nc2ccccc2P(C)(C)=O)n1` the Cmax decrease was 60% (CYP3A (human); drug interaction; human; 180 mg, with: rifampin 600 mg; relative to: compound alone).
For `Cc1ccc(C)c(OCCCC(C)(C)C(=O)O)c1`, “plasma protein binding” read 98.6% (albumin; plasma).
`CN/C(=N/CCSCc1nc[nH]c1C)NC#N` has a Km of 18.2 µM (ABCC4; substrate).
`C=CC(=O)Nc1cc(Nc2nccc(-c3cn(C)c4ccccc34)n2)c(OCC(F)(F)F)nc1N(C)CCN(C)C` has an EC50 of 0.25 µM (CYP3A4; enzyme induction).
The Km of `CC(=O)Nc1ccc(O)cc1` is reported as 23000 µM (UGT2B15; substrate).
With `C=C[C@@H]1C[C@]1(NC(=O)[C@@H]1C[C@@H]2CN1C(=O)[C@H](C(C)(C)C)NC(=O)O[C@@H]1C[C@H]1CCCCCc1nc3ccc(OC)cc3nc1O2)C(=O)NS(=O)(=O)C1CC1` the IC50 was 1.22 µM (OATP1B3 (SLCO1B3) OATP1B3; literature geometric mean).
`C[C@]1(c2nc3c(C(N)=O)cccc3[nH]2)CCCN1` gave an uptake clearance of 8.6 pmol/min/mg protein (OCT2; transport, substrate; HEK293 expressing OCT2).
`CC(=O)C(C)n1ncn(-c2ccc(N3CCN(c4ccc(OC[C@H]5CO[C@](Cn6cncn6)(c6ccc(Cl)cc6Cl)O5)cc4)CC3)cc2)c1=O` (some centres unmarked) has a kcat of 0.0065 s⁻¹ (CYP3A4; substrate).
With `CNCc1cn(S(=O)(=O)c2cccc(F)c2)c(-c2ccc(F)cc2F)c1OC` the IC50 was over 100 µM (OATP1B1; transporter uptake, inhibitor).
With `COC[C@H]1C[C@@H](c2ncc(-c3ccc4c(c3)COc3cc5c(ccc6nc([C@@H]7CC[C@H](C)N7C(=O)[C@@H](NC(=O)OC)C(C)C)[nH]c65)cc3-4)[nH]2)N(C(=O)[C@H](NC(=O)OC)c2ccccc2)C1` the IC50 was 1.64 µM (OATP1B3 (SLCO1B3) OATP1B1; literature geometric mean).
`COc1cc(O)c(CC=C(C)C)c2c1C(=O)CC(c1ccc(O)cc1)O2` (centres unmarked) has an inhibition of over 90% (recombinant CYP1A2 (human); enzyme activity, inhibitor; 10 µM, with: acetanilide).
With `CNC(C)C1CCC(N)C(OC2C(N)CC(N)C(OC3OCC(C)(O)C(NC)C3O)C2O)O1` (centres unmarked) the MIC was over 8 µg/mL (Klebsiella pneumoniae; clinical isolate RKI-No_503/15).
For `CO[C@H]1/C=C/O[C@@]2(C)Oc3c(C)c(O)c4c(O)c(c(/C=N/N5CCN(C)CC5)c(O)c4c3C2=O)NC(=O)/C(C)=C\C=C\[C@H](C)[C@H](O)[C@@H](C)[C@@H](O)[C@@H](C)[C@H](OC(C)=O)[C@@H]1C`, the Km was 1.5 µM (OATP1B1 (human); substrate).
With `Cc1c(C#N)cccc1[C@@H](C)Nc1nnc(C)c2cnc(N3CCOCC3)cc12` the IC50 was 0.0354 ± 0.0066 µM (HOP-92; ERK phosphorylation, In-Cell Western, item: phospho-ERK).
With `Cc1ccc(C)c(OCCCC(C)(C)C(=O)O)c1` the IC50 was 137 µM (OATP1B3 (SLCO1B3) OATP1B3; literature geometric mean).
With `C#C[C@]1(O)CC[C@H]2[C@@H]3CCC4=CC(=NO)CC[C@@H]4[C@H]3CC[C@@]21CC` (mixture of isomers) the fraction metabolized was 0.43 (CYP2B6).
For `CO[C@H]1/C=C/O[C@@]2(C)Oc3c(C)c(O)c4c(O)c(c(/C=N/N5CCN(C)CC5)c(O)c4c3C2=O)NC(=O)/C(C)=C\C=C\[C@H](C)[C@H](O)[C@@H](C)[C@@H](O)[C@@H](C)[C@H](OC(C)=O)[C@@H]1C`, the EC50 was 0.07 µM (CYP2B6; enzyme induction; Simcyp compound file).
`CC(O)c1cc(C(=O)N[C@@H](C)Cn2ccc(-c3ccc(C#N)c(Cl)c3)n2)[nH]n1` (some centres unmarked) gave an IC50 of 16.8 µM (OATP1B1; literature maximum).
The efflux ratio of `C[C@H]1O[C@@H](O[C@H]2[C@@H](O)C[C@H](O[C@H]3[C@@H](O)C[C@H](O[C@H]4CC[C@@]5(C)[C@H](CC[C@@H]6[C@@H]5C[C@@H](O)[C@]5(C)[C@@H](C7=CC(=O)OC7)CC[C@]65O)C4)O[C@@H]3C)O[C@@H]2C)C[C@H](O)[C@@H]1O` is reported as about 10 (ATP-dependent translocase ABCB1 (ABCB1, Homo sapiens, UniProt P08183); substrate; Caco-2).
`OC(Cn1cncn1)(Cn1cncn1)c1ccc(F)cc1F` has a Ki of 2 µM (CYP2C19 human; inhibitor).
